Results from different studies.
Parts stem from different laboratories: compare values within a part only.

Series 1 — technique: competition protein-binding microarray; form: double-stranded DNA, one strand shown; matrix: in vitro; concentration: 2 µM; with: Cbf1 competitor, 0.05 µM; reading: higher = stronger binding; measurement: fluorescence intensity
Target: Phosphate system positive regulatory protein PHO4, full length, GST-tagged (PHO4, Saccharomyces cerevisiae, UniProt P07270, residues 1-312)
Setting: whole 60-bp probe, lowest competitor level
Residues (chain): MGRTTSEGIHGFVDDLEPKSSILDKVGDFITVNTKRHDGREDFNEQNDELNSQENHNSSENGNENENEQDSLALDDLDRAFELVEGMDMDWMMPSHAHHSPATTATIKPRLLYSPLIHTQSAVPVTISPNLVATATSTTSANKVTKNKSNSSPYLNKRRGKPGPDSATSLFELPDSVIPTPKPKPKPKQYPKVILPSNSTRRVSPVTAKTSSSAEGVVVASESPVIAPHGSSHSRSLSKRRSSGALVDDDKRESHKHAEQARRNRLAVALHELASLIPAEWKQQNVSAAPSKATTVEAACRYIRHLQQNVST
TCTCTGGCCTCCCATCACGTTACTTTATTACCCGGAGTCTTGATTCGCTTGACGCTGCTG: 7050 a.u.
CGTCTCCCGCAAAGCCACGCGCCAGCTGACTGGCTCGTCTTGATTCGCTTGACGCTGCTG: 9330 a.u.
CTTTCCCGATCTTTTCACGTGCGTTTAGCACATTTGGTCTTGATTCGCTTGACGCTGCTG: 14000 a.u.
GTCAATACTCTAATAGCTGTGATGAAAATCATAATAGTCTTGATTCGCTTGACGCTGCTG: 3490 a.u.
CAAACTGAGACCTTCCACGTTGTGGGCACCACCACTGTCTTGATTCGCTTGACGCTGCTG: 11100 a.u.

Series 2 — technique: universal PBM; form: double-stranded DNA, one strand shown; matrix: in vitro; concentration: not given; reading: higher = stronger binding; measurement: E-score
Target: Sal-like protein 4, full length isoform B (SALL4, Homo sapiens, UniProt Q9UJQ4-2, residues 1-616)
Setting: 8-mer, flanks averaged, mean of replicates
Target sequence (chain): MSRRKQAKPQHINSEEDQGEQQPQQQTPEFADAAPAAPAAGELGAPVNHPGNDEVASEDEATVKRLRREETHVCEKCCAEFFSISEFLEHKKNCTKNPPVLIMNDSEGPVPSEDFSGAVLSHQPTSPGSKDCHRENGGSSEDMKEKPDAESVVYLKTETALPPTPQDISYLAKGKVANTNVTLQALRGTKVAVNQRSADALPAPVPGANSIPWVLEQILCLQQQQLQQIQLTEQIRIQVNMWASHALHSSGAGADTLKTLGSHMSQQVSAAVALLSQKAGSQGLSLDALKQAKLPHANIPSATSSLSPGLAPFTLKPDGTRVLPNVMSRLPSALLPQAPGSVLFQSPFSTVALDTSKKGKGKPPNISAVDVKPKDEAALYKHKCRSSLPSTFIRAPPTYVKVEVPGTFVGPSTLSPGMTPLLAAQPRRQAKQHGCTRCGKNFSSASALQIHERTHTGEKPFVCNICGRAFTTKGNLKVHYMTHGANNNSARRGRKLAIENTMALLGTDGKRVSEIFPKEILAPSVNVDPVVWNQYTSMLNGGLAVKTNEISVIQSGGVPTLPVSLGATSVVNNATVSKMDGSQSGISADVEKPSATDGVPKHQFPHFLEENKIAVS
CACGAGGG: -0.282
CCCTCCAA: -0.255
GAATAGAA: 0.158
AAAGCATT: 0.221
AGGAGCTA: -0.0507
CTAGTCCA: -0.0713

Series 3 — technique: protein binding microarray; form: double-stranded DNA, one strand shown; matrix: in vitro; concentration: not given; reference: not given; reading: higher = stronger binding; measurement: E-score
Target: Histone acetyltransferase KAT6A, winged helix 1, GST fusion (KAT6A, Homo sapiens, UniProt Q92794, residues 1-85)
Setting: 8-mer, flanks averaged, mean of 2 arrays, mostly near background
Residues (chain): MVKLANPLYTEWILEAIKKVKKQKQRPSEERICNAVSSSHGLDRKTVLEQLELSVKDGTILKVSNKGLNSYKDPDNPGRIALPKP
TAGGTGCA: -0.214
CGGGTCCA: 0.125
CTTGTCTA: -0.0421
GAACTGCC: -0.0513
GTTCTGGA: -0.123
AGAACAAG: -0.156
AAGTACGT: -0.112
GCGGTGGA: 0.0859

Single results of other studies
PhoQ, residues 284 288 289 292 302 303 QWGLFV  fold induction (PhoP, residues 12 14 15 18 19 QWHVF (Escherichia coli, UniProt P23836); Sort-seq, refers to: YFP reporter; E. coli; PhoQ-PhoP variant library, with: 10 µM Mg2+; reference: high Mg2+ state, higher = stronger signaling): 1.28
